Measurements pooled from the literature.
Protocols differ between the studies behind these lines. Several values in a cell are separate wells, animals, samples, runs or records. ± marks the error that the study gave.
Seed linoleate 13S-lipoxygenase-1: Seed linoleate 13S-lipoxygenase-1 (Glycine max, UniProt P08170)

Compound = CCCn1cnc(C[C@H](NC(=O)c2cnccn2)C(=O)N2CCC[C@H]2C(N)=O)c1; target = Thyrotropin-releasing hormone receptor (Mus musculus, UniProt P21761); test = ligand displacement, radioligand; IC50 = > 50000 nM
Compound = CN(C)CCNC(=O)c1cc(-c2ccccc2)nc2ccc(Br)cc12; target = Trypanothione reductase (TPR, Trypanosoma brucei brucei, UniProt P39051); test = inhibitor, DTNB-coupled colourimetric; setting = together with: substrate at Km; IC50 = > 100000 nM
Compound = N=C(CCl)NCCC[C@H](NC(=O)c1ccc(/N=N\c2ccccc2)cc1)c1nc2ccccc2[nH]1; target = Protein-arginine deiminase type-2 (PADI2, Homo sapiens, UniProt Q9Y2J8); test = inhibitor, competitive ABPP; setting = 2 h, 37 °C, 30 min preincubation, together with: RFA probe 2 µM; IC50 = 9100 nM
Compound = COc1cc(OC)cc(-c2nc3ccc(C(=O)NCCCN4CCN(c5cccc(C)c5C)CC4)cc3n2C2CCC2)c1; target = Activin receptor type-1 (ACVR1, Homo sapiens, UniProt Q04771, R206H); test = binding, NanoBRET; test system = HEK293; IC50 = 4450 nM
Compound = Nc1ncnc2c1ncn2C1OC(COP(=O)(O)O)C(O)C1O (stereo not drawn); target = Fructose-1,6-bisphosphatase 1 (Mus musculus, UniProt Q9QXD6); test = enzyme activity, inhibitor; setting = His-tagged mouse wild type, together with: fructose-1,6-bisphosphate 35 µM; IC50 = ~14000 nM
Compound = CC(C)C[C@H](NC(=O)[C@H](Cc1c[nH]c2ccccc12)NC(=O)[C@H](C)NC(=O)CNC(=O)[C@@H](N)CSSC[C@H](N)C(=O)NCC(=O)N[C@@H](C)C(=O)N[C@@H](Cc1c[nH]c2ccccc12)C(=O)N[C@@H](CC(C)C)C(=O)N[C@@H](C)C(=O)N[C@@H](Cc1ccc(O)cc1)C(=O)N1CCC[C@H]1C(=O)N[C@@H](CC(=O)O)C(=O)N[C@@H](CO)C(=O)N[C@H](C(=O)N1CCC[C@H]1C(=O)N[C@@H](Cc1ccc(O)cc1)C(=O)N[C@@H](CCCNC(=N)N)C(=O)N1CCC[C@H]1C(=O)N[C@@H](CCCCN)C(N)=O)C(C)C)C(=O)N[C@@H](C)C(=O)N[C@@H](Cc1ccc(O)cc1)C(=O)N1CCC[C@H]1C(=O)N[C@@H](CC(=O)O)C(=O)N[C@@H](CO)C(=O)N[C@H](C(=O)N1CCC[C@H]1C(=O)N[C@@H](Cc1ccc(O)cc1)C(=O)N[C@@H](CCCNC(=N)N)C(=O)N1CCC[C@H]1C(=O)N[C@@H](CCCCN)C(N)=O)C(C)C; target = Ephrin type-A receptor 2, ectodomain with ephrin-A5 (Mus musculus, UniProt Q03145); test = ephrin-A5 binding, inhibitor, ELISA; setting = together with: ephrin-A5-AP 0.05 nM; IC50 = 0.4 nM
Compound = Cc1ccccc1/C=C/C(=O)C(c1ccccc1)c1ccccc1; target = Seed linoleate 13S-lipoxygenase-1; test = enzyme activity, inhibitor, absorbance; IC50 = 95200 nM
Compound = CC(=O)NCCN(CCC(=O)NCCN(CCC(=O)NCCN(CCC(=O)NCCC(N)=O)C(=O)[C@@H](N)CCCCN)C(=O)[C@@H](N)Cc1ccccc1)C(=O)[C@@H](N)Cc1ccccc1; target = HIV-1 TAR RNA; test = Tat/TAR complex displacement, FRET; setting = room temperature, together with: 10 nM Tat/TAR complex; IC50 = 122800 ± 500 nM
Compound = O=C1/C=C\C(=O)N[C@@H](CC2CCCCC2)C(=O)N[C@@H](Cc2ccccc2)C(=O)N[C@@H](CCCNC(=O)c2cnccn2)C(=O)NCC[C@@H](C(=O)O)N1; target = Proto-oncogene tyrosine-protein kinase LCK (Lck, Mus musculus, UniProt P06240); test = enzyme activity, inhibitor, absorbance; IC50 = 2400 nM
Compound = CNC(=O)C1CCN(c2cc(C)c(F)cc2NC(=O)c2ccc(-c3cc(O)ccc3C)c(C)c2)CC1; target = Ephrin type-A receptor 4 (EPHA4, Homo sapiens, UniProt P54764); test = target engagement in cells, BRET; IC50 = 40 nM and 39.6 nM
Compound = O=C(Cc1ccc(F)cc1)NCCOc1ccc(-c2ccc(F)cc2)nn1; target = V-type immunoglobulin domain-containing suppressor of T-cell activation (VSIR, Homo sapiens, UniProt Q9H7M9); test = enzyme activity, inhibitor, FRET; IC50 = 121 nM
Compound = O=C(c1ccc(F)c([N+](=O)[O-])c1)N1CCN(c2ccccc2F)CC1; target = SEC14 (Saccharomyces cerevisiae, UniProt P24280); test = enzyme activity, inhibitor, radiometric; IC50 = 36800 nM
Compound = CCN(c1nc(NCC(=O)O)nc(N2CCN(c3ccccc3OC)CC2)n1)C1CCCCC1; target = Slit homolog 2 protein, with SLIT2 (SLIT2, Homo sapiens, UniProt O94813); test = inhibitor, TR-FRET; IC50 = 239000 nM
Compound = COc1ccc(C(=O)/C=C/c2ccccc2-c2c[nH]c3ccc(C#N)cc23)c(O)c1; target = Serine/threonine-protein kinase pim-1 (PIM1, Homo sapiens, UniProt P11309); test = enzyme activity, inhibitor; IC50 = 500 nM
Compound = CNC(=O)C1CCN(c2ccccc2NC(=O)c2ccc(-c3c(C)ccc4[nH]ncc34)c(C)c2)CC1; target = Ephrin type-B receptor 2 (EPHB2, Homo sapiens, UniProt P29323); test = target engagement in cells, BRET; IC50 = 28 nM
Compound = NCCCCCO[C@H]1O[C@H](COS(=O)(=O)O)[C@@H](O[C@@H]2O[C@@H](C(=O)O)[C@@H](O[C@H]3O[C@H](COS(=O)(=O)O)[C@@H](O[C@@H]4O[C@@H](C(=O)O)[C@@H](O[C@H]5O[C@H](COS(=O)(=O)O)[C@@H](O[C@@H]6O[C@@H](C(=O)O)[C@@H](O)[C@H](O)[C@H]6OS(=O)(=O)O)[C@H](O)[C@H]5NS(=O)(=O)O)[C@H](O)[C@H]4OS(=O)(=O)O)[C@H](O)[C@H]3NS(=O)(=O)O)[C@H](O)[C@H]2OS(=O)(=O)O)[C@H](O)[C@H]1NS(=O)(=O)O; target = Coagulation factor X (F10, Bos taurus, UniProt P00743); test = enzyme activity, inhibitor, absorbance; IC50 = 85 µg/mL
Compound = COc1cc(OC)c2c(c1)C(=O)c1cc3oc(=O)cc(-c4ccccc4)c3c(O)c1C2=O; target = mushroom tyrosinase; test = enzyme activity; setting = together with: L-DOPA; IC50 = 78.02 ± 0.49 µg/mL
Compound = CSCC[C@H](NC(=O)[C@H](CC(C)C)NC(=O)CNC(=O)[C@@H]1CCCN1C(=O)[C@H](Cc1ccccc1)NC(=O)[C@@H](N)C(C)C)C(=O)N[C@@H](CCC(=O)O)C(=O)N[C@@H](CC(C)C)C(=O)O; target = H-2 class I histocompatibility antigen, K-D alpha chain, 29 (H2-K1, Mus musculus, UniProt P01902); test = binding, competitor, radioligand competition; setting = purified MHC, mutant peptide, together with: radiolabeled standard peptide; IC50 = > 70000 nM
Compound = C=C(NC(=O)C(=C)NC(=O)c1csc(C2=NC3c4csc(n4)C4NC(=O)c5csc(n5)C(C(C)(O)C(C)O)NC(=O)C5CSC(=N5)C(=CC)NC(=O)C(C(C)O)NC(=O)c5csc(n5)C3(CC2)NC(=O)C(C)NC(=O)C(=C)NC(=O)C(=CC)NC(=O)C(C(C)CC)NC2C=Cc3c(C(C)O)cc(nc3C2O)C(=O)OC4C)n1)C(N)=O (stereo not drawn); target = Proteasome subunit beta type-7, in 20S proteasome (PSMB7, Homo sapiens, UniProt Q99436); test = trypsin-like activity, inhibitor; test system = purified human 20S proteasome; setting = 37 °C, 15 min preincubation, together with: Boc-Leu-Arg-Arg-AMC; IC50 = 1300 ± 200 nM
Compound = CCc1ccc2nc(-c3cc(-c4cnn(C5CCNCC5)c4)cnc3N)oc2c1O; target = Tyrosine-protein kinase JAK2 (JAK2, Homo sapiens, UniProt O60674); test = enzyme activity, inhibitor, TR-FRET; IC50 = 2400 nM
Compound = CCCCCC[N+](CCCCCC)(CCCCCC)CCCCCC; target = Potassium channel subfamily K member 2 (Kcnk2, Rattus norvegicus, UniProt Q920B6); test = ion current, inhibitor; setting = pH 5, oocytes; IC50 = 1000 nM
Compound = N#Cc1c(Nc2c(Cl)ccc3ncccc23)s[nH]c1=O; target = NAD(+) hydrolase SARM1 (SARM1, Homo sapiens, UniProt Q6SZW1, C649A); test = enzyme activity, inhibitor; IC50 = 1200 nM
Compound = CC1=CC(C)(C)N=C(Nc2nc(C)c3cc(C)cc(C)c3n2)N1; target = ADP-ribosyl cyclase/cyclic ADP-ribose hydrolase 1 (CD38, Homo sapiens, UniProt P28907); test = cyclase activity, fluorometric; setting = together with: NGD+ substrate; IC50 = > 100000 nM
Compound = CCN(CC)C(=O)C(C)Sc1nnc(C2CCN(C(=O)Nc3ccccc3)CC2)n1CC (stereo not drawn); target = Seed linoleate 13S-lipoxygenase-1; test = enzyme activity, inhibitor; IC50 = 2650 nM and < 7000 nM

For quick reference, copied from above:
Compound = CCCCCC[N+](CCCCCC)(CCCCCC)CCCCCC; target = Potassium channel subfamily K member 2 (Kcnk2, Rattus norvegicus, UniProt Q920B6); test = ion current, inhibitor; setting = pH 5, oocytes; IC50 = 1000 nM
Compound = N#Cc1c(Nc2c(Cl)ccc3ncccc23)s[nH]c1=O; target = NAD(+) hydrolase SARM1 (SARM1, Homo sapiens, UniProt Q6SZW1, C649A); test = enzyme activity, inhibitor; IC50 = 1200 nM
